Assay results from different studies.
Numbers after ± are the reported error.
Chain of UniProt O00443 (whole entry, looked up): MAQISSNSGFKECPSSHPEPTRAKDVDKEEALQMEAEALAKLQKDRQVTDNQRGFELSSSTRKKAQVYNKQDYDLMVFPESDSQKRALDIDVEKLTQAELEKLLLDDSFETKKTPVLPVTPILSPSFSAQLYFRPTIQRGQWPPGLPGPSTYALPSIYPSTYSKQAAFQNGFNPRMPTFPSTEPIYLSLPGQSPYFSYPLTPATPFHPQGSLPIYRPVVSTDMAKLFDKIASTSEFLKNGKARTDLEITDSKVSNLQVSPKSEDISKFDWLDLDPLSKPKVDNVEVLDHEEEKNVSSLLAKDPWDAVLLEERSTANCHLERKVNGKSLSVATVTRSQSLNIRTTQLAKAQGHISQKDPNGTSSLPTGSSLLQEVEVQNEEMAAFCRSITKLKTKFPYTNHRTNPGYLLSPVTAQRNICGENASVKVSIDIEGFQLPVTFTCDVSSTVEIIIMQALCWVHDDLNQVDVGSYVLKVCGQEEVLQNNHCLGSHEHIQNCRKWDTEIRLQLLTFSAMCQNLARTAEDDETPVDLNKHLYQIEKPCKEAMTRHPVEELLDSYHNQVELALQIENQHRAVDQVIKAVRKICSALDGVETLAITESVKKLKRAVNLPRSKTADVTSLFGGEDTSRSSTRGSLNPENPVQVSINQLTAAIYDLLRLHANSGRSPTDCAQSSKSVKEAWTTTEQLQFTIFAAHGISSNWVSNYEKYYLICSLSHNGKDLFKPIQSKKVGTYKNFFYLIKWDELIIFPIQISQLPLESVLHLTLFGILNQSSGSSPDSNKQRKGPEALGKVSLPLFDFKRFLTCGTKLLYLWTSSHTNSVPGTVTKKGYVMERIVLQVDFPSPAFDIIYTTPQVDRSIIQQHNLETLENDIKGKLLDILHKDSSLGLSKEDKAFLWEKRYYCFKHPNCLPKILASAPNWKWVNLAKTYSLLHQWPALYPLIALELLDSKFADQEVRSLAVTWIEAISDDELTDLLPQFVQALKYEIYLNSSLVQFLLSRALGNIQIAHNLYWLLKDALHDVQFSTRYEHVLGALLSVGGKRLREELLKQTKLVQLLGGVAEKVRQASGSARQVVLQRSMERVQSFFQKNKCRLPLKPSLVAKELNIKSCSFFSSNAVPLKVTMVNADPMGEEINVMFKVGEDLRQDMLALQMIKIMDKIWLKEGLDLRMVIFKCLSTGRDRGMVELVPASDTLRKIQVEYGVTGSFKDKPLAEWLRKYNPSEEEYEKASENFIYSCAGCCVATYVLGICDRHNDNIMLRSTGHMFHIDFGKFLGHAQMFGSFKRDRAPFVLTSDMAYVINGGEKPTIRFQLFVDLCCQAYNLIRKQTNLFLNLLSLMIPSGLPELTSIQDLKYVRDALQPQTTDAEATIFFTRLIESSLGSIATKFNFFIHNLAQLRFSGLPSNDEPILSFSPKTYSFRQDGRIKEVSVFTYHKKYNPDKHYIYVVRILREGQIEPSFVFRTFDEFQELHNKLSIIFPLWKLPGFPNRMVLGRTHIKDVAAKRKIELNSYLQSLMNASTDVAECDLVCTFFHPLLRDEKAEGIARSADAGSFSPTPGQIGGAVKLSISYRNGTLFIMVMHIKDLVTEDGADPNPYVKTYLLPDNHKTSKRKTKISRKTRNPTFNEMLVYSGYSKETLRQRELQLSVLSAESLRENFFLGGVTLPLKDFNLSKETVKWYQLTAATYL

| SMILES | tested on | test | system | conditions | scale | measurement | value |
| --- | --- | --- | --- | --- | --- | --- | --- |
| O=C1NC2(CC2)COc2ncc(F)cc2[C@H]2COCCN2c2ccn3ncc1c3n2 | – | – | Sprague-Dawley rat, female, liver | oral, 2.5 mg/kg/day, 4 weeks | – | organ weight | 12.1 ± 1.51 g |
| Cc1cc(C(=O)Nc2nc3cccc(C)c3n2[C@H]2CCCCN(C(=O)/C=C/CN(C)C)C2)ccn1 | Trypanosoma brucei | – | STIB795, mouse acute HAT model | oral, 2.5 mg/kg once daily for 4 days, day 6 | baseline: mice | survival | 16.7% |
| CCCCCCCCCCCC(=O)C(C)C(=O)N1CCC[C@H]1C(=O)NC(C)(C)C(=O)NC(C)(C)C(=O)NC(C)(C)C(=O)N[C@](C)(CC)C(=O)NCCC(=O)N[C@@H](C)C(=O)N[C@](C)(CC)C(=O)N[C@@H](C)C(=O)N[C@@H](CC(C)C)C(=O)N[C@](C)(CC)C(=O)NCCC(=O)N[C@@H](C)C(=O)N[C@](C)(CC)C(=O)NCCC(=O)N[C@@H](C)C(=O)NC(C)(C)C(=O)NC(C)(C)C(=O)NC(C)(C)C(=O)N[C@@H](C)C(=O)N[C@@H](CC(=O)O)C(=O)O (stereo partly drawn) | β-1,3-glucan | pull-down, LC-MS | – | 1 h, pH 7.0, 30 °C, with: β-glucan 1 mg/mL | higher = less bound | unbound compound (MS peak area) | 856 a.u. |
| CCCC[C@H](NC(=O)CN1CCC(NC(=O)CN2CCN(CC(N)=O)CCN(CC(N)=O)CCN(CC(N)=O)CC2)CC1)C(=O)N[C@H]1CC(=O)NCCCC[C@@H](C(N)=O)NC(=O)[C@H](Cc2c[nH]c3ccccc23)NC(=O)[C@H](CCCNC(=N)N)NC(=O)[C@@H](Cc2ccccc2)NC(=O)[C@H](Cc2c[nH]cn2)NC1=O [lead-203 labelled] | – | SPECT/CT SUVmean | C57BL/6J mice B16-F10 tumour-bearing, liver | dose not given, 2 h | baseline: thiourea analogue over amide | liver uptake reduction | 3.7 fold |
| CS(C)(=O)=Nc1ccc(-c2ccc(-c3nc4cc(O[C@@H]5CO[C@H]6[C@@H]5OC[C@H]6O)[nH]c4cc3F)cc2)cc1 | Phosphatidylinositol 4-phosphate 3-kinase C2 domain-containing subunit alpha (PIK3C2A, Homo sapiens, UniProt O00443) | enzyme activity, inhibitor | – | 10 µM | – | inhibition | 5% |
| CC(C)[C@@H]1NC(=O)[C@@H]2CCCN2C(=O)[C@@H](C(C)C)NC(=O)[C@H]2CCCN2C(=O)[C@H](C(C)C)NC(=O)[C@@H]2CCCN2C(=O)[C@@H](C(C)C)NC(=O)[C@H]2CCCN2C(=O)[C@H](C(C)C)NC(=O)[C@@H]2CCCN2C(=O)[C@@H](C(C)C)NC(=O)[C@H]2CCCN2C1=O | – | – | sheep lipid bilayer | 10 µM, pH 7.4, 23 °C, with: 0.1 M K+ vs NH4 chloride | – | bi-ionic potential | -39 mV |
| COc1ccccc1-c1n[nH]c2nc(NC3CCN(C(=O)Cc4ccc(F)cc4F)CC3)ncc12 | – | bead binding, competition bead pull-down, item: LINJ.34.0150 | Leishmania donovani axenic amastigote extract | 10 µM | baseline: vehicle | relative abundance | 0.99 |
| NCCCO.O=C(O)C(Cl)Cl | Eleusine indica | – | – | 15 mg/mL, 21 days, post-emergence, greenhouse | – | herbicidal inhibition | 10% |
| CC(C)CC(C(=O)N1CC2(CC1C#N)C(=O)Nc1ccccc12)N(C)C(=O)c1cc2c(F)cc(F)c(F)c2[nH]1 (stereo not drawn) | Human coronavirus 229E | cytopathic effect | MRC5 | 80 nM | – | inhibition | 105% |
| CC(C)(C)C(=O)OCOP(=O)(OCOC(=O)C(C)(C)C)C1CCCN(O)C1=O (stereo not drawn) | HOP-92 | – | – | – | – | GI50 | 695 nM |
| COc1ccccc1-c1n[nH]c2nc(N[C@H]3CC[C@H](NS(=O)(=O)CC(C)C)CC3)ncc12 | – | bead binding, competition bead pull-down, item: LMJF.01.0320 | Leishmania donovani extract | 10 µM | baseline: vehicle | relative abundance | 1.03 |
| C[C@H](NC(=O)[C@H](CCCNC(=N)N)NC(=O)[C@@H](N)Cc1ccccc1)C(=O)N[C@H]1CSCc2cccc(n2)CSC[C@@H](C(=O)N[C@H](C(=O)NCC(=O)N[C@@H](CO)C(=O)N[C@@H](Cc2ccc(O)cc2)C(=O)N[C@@H](Cc2c[nH]cn2)C(=O)N[C@@H](CCCCNC(=O)CN2CCN(CC(=O)O)CCN(CC(=O)O)CCN(CC(=O)O)CC2)C(=O)O)[C@@H](C)O)NC(=O)[C@H](CC(=O)O)NC(=O)[C@H](Cc2ccccc2)NC(=O)[C@@H]2CCCN2C1=O [gallium-68 labelled] | – | radio-HPLC | 10% fetal bovine serum | 2 h, 37 °C | – | radiochemical purity | > 99% |
